# Results gathered from unrelated publications.
# Lines come from different studies, so protocols differ. ± marks the error that the study gave.
# Cell line: HCT-15
# Time: 72 h
SMILES,effect on,method,IC50
CN1CCN(C(=O)c2cn(C34CCCC(C)(CCC5C3CC5(C)C)C4)nn2)CC1 (stereo not shown),cell growth or viability,CCK-8,17.5 µM
Cc1c(C)n(-c2c(C(C)C)cccc2C(C)C)c(=[Se])n1-c1c(C(C)C)cccc1C(C)C.[Cl][Au],cell growth or viability,MTT,1.6 µM
CC12CCCC(n3cc(C(=O)N4CCC(N)CC4)nn3)(C1)C1CC(C)(C)C1CC2 (stereo not shown),cell growth or viability,CCK-8,15.3 µM
CC(=O)[O][Pt]([Cl])([Cl])[O]C(=O)CCCc1ccccc1.N.N,cell growth,,5.17 ± 0.85 µM
CC(C)c1cccc(C(C)C)c1-n1ccn(-c2c(C(C)C)cccc2C(C)C)c1=[Se].[Cl][Ag],cell growth or viability,MTT,5.4 µM
CC(C)c1cccc(C(C)C)c1-n1c2c([n+](-c3c(C(C)C)cccc3C(C)C)[c]1[Cu-][Cl])-c1cccc3cccc-2c13,cell growth or viability,MTT,5.9 µM
CCCC(CCC)C(=O)[O][Pt]1([O]C(=O)C(CCC)CCC)[O]C(=O)C(=O)[O]1.NC1CCCCC1N,cell growth,,16.4 ± 1.63 µM
Cc1cc(C)c(-n2c3c([n+](-c4c(C)cc(C)cc4C)[c]2[Au-][Cl])-c2cccc4cccc-3c24)c(C)c1,cell growth or viability,MTT,17 µM
CCCC(CCC)C(=O)[O][Pt]1([OH])[O]C(=O)C(=O)[O]1.NC1CCCCC1N,cell growth,,51.5 ± 3.26 µM
CC(C)c1cccc(C(C)C)c1N1CCN(c2c(C(C)C)cccc2C(C)C)C1=[Se].[Cl][Ag],cell growth or viability,MTT,3.9 µM
CCCC(CCC)C(=O)[O][Pt]([Cl])([Cl])[O]C(=O)C(CCC)CCC.N.N,cell growth,,0.81 ± 0.12 µM
CC12CCCC(n3cc(C(=O)N4CC(N)C4)nn3)(C1)C1CC(C)(C)C1CC2 (stereo not shown),cell growth or viability,CCK-8,15.3 µM
CC(C)Cc1ccc(C(C)C(=O)[O][Pt]([NH2])([NH2])([Cl])([Cl])[O]C(=O)CCCc2ccccc2)cc1 (stereo not shown),cell growth or viability,MTT,4.98 µM
CC12CCCC(NS(=O)(=O)C3CCN(Cc4ccccc4)C3)(C1)C1CC(C)(C)C1CC2 (stereo not shown),cell growth or viability,CCK-8,16.2 µM
[Cl][Au].[Se]=c1n(C23CC4CC(CC(C4)C2)C3)ccn1C12CC3CC(CC(C3)C1)C2,cell growth or viability,MTT,2.9 µM
CC(=O)Oc1ccccc1C(=O)[O][Pt]([NH2])([NH2])([Cl])([Cl])[O]C(=O)C(Cl)Cl,cell growth or viability,MTT,1.03 µM
CN(C)CCCS(=O)(=O)NC12CCCC(C)(CCC3C1CC3(C)C)C2 (stereo not shown),cell growth or viability,CCK-8,13 µM
CC(=O)Oc1ccccc1C(=O)[O][Pt]([NH2])([NH2])([Cl])([Cl])[O]C(=O)CCCc1ccccc1,cell growth or viability,MTT,1.86 µM
[Cl][Au-][c]1n(-c2c(C(c3ccccc3)c3ccccc3)cc(C(c3ccccc3)c3ccccc3)cc2C(c2ccccc2)c2ccccc2)c2c([n+]1-c1c(C(c3ccccc3)c3ccccc3)cc(C(c3ccccc3)c3ccccc3)cc1C(c1ccccc1)c1ccccc1)-c1cccc3cccc-2c13,cell growth or viability,MTT,> 50 µM
CC(C)c1cccc(C(C)C)c1-n1c(Cl)c(Cl)n(-c2c(C(C)C)cccc2C(C)C)c1=[Se].[Cl][Au],cell growth or viability,MTT,1.8 µM
CC(=O)[O][Pt]([Cl])([Cl])[O]C(C)=O.N.N,cell growth,,40.2 ± 2.86 µM
[Cl][Cu-][c]1n(-c2c(C(c3ccccc3)c3ccccc3)cc(C(c3ccccc3)c3ccccc3)cc2C(c2ccccc2)c2ccccc2)c2c([n+]1-c1c(C(c3ccccc3)c3ccccc3)cc(C(c3ccccc3)c3ccccc3)cc1C(c1ccccc1)c1ccccc1)-c1cccc3cccc-2c13,cell growth or viability,MTT,> 50 µM

# Excerpt of the above:
SMILES,effect on,method,IC50
CC(=O)Oc1ccccc1C(=O)[O][Pt]([NH2])([NH2])([Cl])([Cl])[O]C(=O)C(Cl)Cl,cell growth or viability,MTT,1.03 µM
